Measured values collected from several papers.
Each line is one published result; not all experiments were run side by side. Numbers after ± are the reported error.

Under “patients with TEAE”, `Cc1cc(NC2CCN(C(=O)OC3CCN(C(=O)/C=C/CN(C)C)C3)CC2)n2ncc(C(C)C)c2n1` (stereo not shown) is recorded as 0% (CTCAE v4.0, measured: Diarrhea; patients with advanced solid tumours; oral, dose not given, TIW, grade 3 or higher).
The solubility of `Cn1c(COc2cccc3cccnc23)nnc1SCC(N)=O` is reported as 161 µg/mL (aqueous buffer; pH 7.4).
Under “TEAE, rectal tenesmus”, `COc1ccc([C@@H](O)c2cc(-c3ncnc4cc(N5CCOCC5)ccc34)c(F)cc2Cl)nn1` is recorded as 37% (locally advanced rectal cancer; all dose levels overall, together with: capecitabine and radiotherapy).
Under “patients with adverse event”, `CNC(=O)c1ccc(-c2cnc3ncc(Cc4ccc5ncccc5c4)n3n2)cc1F` is recorded as 0% (measured: Diarrhea; cancer patients; oral, 600 mg twice daily, all expansion cohorts, grade 3-4).
For `O=c1cc(-c2ccc(OS(=O)(=O)[O-])cc2)oc2cc(OS(=O)(=O)[O-])cc(OCc3cccc(COc4cc(OS(=O)(=O)[O-])cc5oc(-c6ccc(OS(=O)(=O)[O-])cc6)cc(=O)c45)n3)c12.[Na+].[Na+].[Na+].[Na+]`, “concentration doubling PT” read over 855 µM (pooled human plasma).
With `C=CC(=O)Nc1cc(Nc2nccc(-c3cn(C)c4ccccc34)n2)c(OC)cc1N(C)CCN(C)C` the recovery was 98.6% (storage stability; human plasma; 2 h, on ice, HQC level).
`COc1ccc2c(=O)n(C)c(-c3ccccc3)nc2c1` — result for tissue concentration: “not detected” (Sprague-Dawley rat, heart; oral, 30 mg/kg, 0.25 h).
`CCOC(=O)N1C[C@@H](c2cccc(Br)c2)N[C@@H](c2ccc(F)c(C#N)c2)C1` has a solubility of under 4 µM (shake-flask, LC-HRMS; aqueous buffer; 16 h, pH 6.8).
`NS(=O)(=O)c1cc(C(=O)O)c(NCc2ccco2)cc1Cl` — result for “subjects with adverse event”: 0% (measured: gastrointestinal disorders; healthy men; oral, 8 days, treatment-emergent, crossover trial).
`Cc1c(C(=O)O)ccc2c3n(nc12)[C@@H]1[C@H](C3)N(CC2CC2)[C@@]2(C(=O)Nc3cc(Cl)ccc32)[C@H]1c1cccc(Cl)c1F` — result for “adverse event incidence”: 92% (phase Ia trial, measured: Nausea; cancer patients; oral, dose not given).
For `COc1cc2nccc(Oc3ccc(NC(=O)c4cc5c(n(-c6ccccc6)c4=O)CCCC5=O)nc3)c2cc1OC`, “grade ≥3 Sepsis patients” read 20% (relapsed or refractory AML; oral, all dose levels).
`CCN1CCN(Cc2ccc(NC(=O)c3ccc(C)c(NC(=O)c4cncc(-c5cccs5)c4)c3)cc2C(F)(F)F)CC1` gave a plasma concentration of 8 ng/mL (LC-MS/MS; C57BL/6 mouse, plasma; intraperitoneal, 10 mg/kg single dose, 24 h).
`CNCCOC12CC3(C)CC(C)(CC(Cn4ncc(-c5ccc(N6CCc7cccc(C(=O)Nc8nc9ccccc9s8)c7C6)nc5C(=O)O)c4C)(C3)C1)C2`: “QRS duration change” -2 ms (beagle dog, male, anaesthetised; intravenous bolus, 0.03 mg/kg, 60 min; baseline: baseline).
Under “subjects with any TEAE”, `O=C(COc1ccc(Cl)cc1)NC12CC(c3nnc([C@H]4C[C@@H](OC(F)(F)F)C4)o3)(C1)C2` is recorded as 91.2% (humans, MAD; oral, dose not given, 14 days, all compound doses).
The solubility of `CCC[C@H](C)[C@H]1CN(C(=O)OCC)C[C@@H](c2ccc(-c3ccccc3)cc2)N1` is reported as under 4 µM (shake-flask, LC-HRMS; aqueous buffer; 16 h, pH 6.8).
Under “increased urine β2-microglobulin”, `Cc1ccc(Sc2ccccc2N2CCNCC2)c(C)c1` is recorded as 0% (elderly men; oral, 10 mg single).
Under “patients with adverse events”, `CNC(=O)c1cc(Oc2ccc(NC(=O)Nc3cc(C(C)(C)C)nn3-c3ccc4ncccc4c3)c(F)c2)ccn1` is recorded as 47% (measured: musculoskeletal disorders, all grades; human patients; oral, dose not given, medium Cmax subgroup, cycles 1-2).
For `Cn1cnc2ccc(Nc3c(F)ccc(NS(=O)(=O)N4CC(F)C4)c3Cl)c(Cl)c2c1=O`, “patients with lipase increased” read 0% (measured: lipase increased grade ≥3; human patients; dose not given, monotherapy trial; baseline: patients).
`COc1ccc2c(c1)CN(C(=O)CCN1CCC(Cc3ccccc3)CC1)CC[S@@+]2[O-]` gave a heart rate of 85 ± 27 beats/min (telemetry; conscious dog; intravenous, 8 mg/kg, 2 h).
For `CSc1ccccc1C(=O)NCCn1cc(C(=O)NCc2cccc(C)n2)c(=O)c2cc3c(cc21)OC(F)(F)O3`, the MRT(0-inf) was 0.41 ± 0.02 h (Sprague-Dawley rat, male, whole blood; intravenous, 5 mg/kg of parent compound).
`CN[C@@H](C)C(=O)N[C@H]1CN(C(=O)CC(C)C)CC[C@H]2CC[C@@H](C(=O)NC(c3ccccc3)c3ccccc3)N2C1=O` has a systemic clearance of 53.9 mL/h (compartmental; SCID mice, MDA-MB-231 xenograft, plasma; oral, 100 mg/kg).
For `N#Cc1ccc2c(c1)[C@H]1CCCN(C(=O)c3ccc4[nH]cnc4c3)[C@H]1C2`, the SHBG level was 36 nmol/L (human males; 360 mg, day 15).
With `O=c1[nH]c(=O)n([C@H]2C[C@H](O)[C@@H](CO)O2)cc1CCCC[18F]` the biodistribution was 0.23 ± 0.04 %ID/g (male CD-1 nu/nu mice, RG2 tumour, skin; intravenous, dose not given, 2 h).
For `CCc1cc(C(=O)NC)c2nccc(N3CCc4c(cc(Cn5ccnc5)cc4-c4cn(C)nc4C(F)(F)F)C3=O)c2c1`, “serum MCV change” read 1.78% (Sprague Dawley rats; oral, 100 mg/kg once daily, 7 days; baseline: vehicle).
`CCOc1c([C@H](C)n2nc(C)c3c(N)ncnc32)cc(Cl)c(F)c1[C@@H]1CNC(=O)C1` has an ECG observations of 0% (measured: QTcF above 500 ms; previously treated B-cell malignancy; oral, 20 mg once daily, baseline QTcF ≤450 ms).
`COc1cccc(OC)c1-c1cc(C(=O)NC2(C(=O)O)C3CC4CC(C3)CC2C4)nn1-c1ccc(C(=O)N(C)CCCN(C)CCCN(C)C(=O)CN2CCN(CC(=O)[O-])CCN(CC(=O)[O-])CCN(CC(=O)[O-])CC2)cc1C(C)C.[177Lu+3]` (stereo not shown) — result for “excretion (urine and faeces)”: 55 ± 7 % ID (SCID mouse, HT-29 xenograft; iv, dose not given, 4 h).
`C=CC(=O)NC1CCN(c2ncc3ncnc(Nc4ccc(Oc5ccc6c(c5)ncn6C)c(C)c4)c3n2)CC1` — result for “participants with presyncope”: 6.3% (human, male; oral, 240 mg, treatment-emergent adverse event).
For `NC1(C(=O)N[C@@H](CCO)c2ccc(Cl)cc2)CCN(c2nc[nH]c3nccc2-3)CC1`, “incidence of Neutropenia” read 0% (metastatic CRPC patients; 320 mg b.i.d., grade 3 to 4, treatment-related, together with: enzalutamide 160 mg daily).
`CCOC(=O)N1C[C@@H](c2cccc(Br)c2)N[C@H](c2ccccc2O)C1` gave a solubility of under 4 µM (shake-flask, LC-HRMS; aqueous buffer; 16 h, pH 6.8).
`CCn1cc(C(=O)N2CCOCC2)c(=O)c2cc(NC3Cc4ccccc4C3)cnc21`: “patients with adverse event” 4.4% (human, GAD, PTSD or social anxiety disorder; dose not given, TEAE Diarrhea, pooled phase trials).
For `CCOC(=O)N1C[C@@H](C2CC2)N[C@@H](c2cccc(OC)c2)C1`, the solubility was over 750 µM (shake-flask, LC-HRMS; aqueous buffer; 16 h, pH 6.8).
For `C=CCN1CC(=O)N2[C@@H](Cc3ccc(O)cc3F)C(=O)N(Cc3cccc(N4CC(N5CCN(CC)CC5)C4)n3)C[C@@H]2N1C(=O)NCc1ccccc1`, “treatment-related adverse events” read 0% (measured: Nausea; advanced solid tumour patients; all doses, dose-escalation part, grade ≥3).
`O=C(Nc1nc2cccc(-c3ccc(CN4CCS(=O)(=O)CC4)cc3)n2n1)C1CC1`: “treatment-emergent adverse events” 0% (measured: non-infective cystitis; rheumatoid arthritis patients; oral, 200 mg once daily, 4 weeks, any relatedness).
The TEAE hyponatremia of `O=C(O)CCC(=O)O.[2H]C([2H])([2H])Oc1cc(C)c2[nH]ccc2c1CN1CC[C@@H](C2CC2)C[C@H]1c1ccc(C(=O)O)cc1` is reported as 0% (healthy Chinese subjects; 50 mg, single ascending dose).
`Cc1ccc([C@@H]2O[C@H](CO)[C@@H](O)[C@H](O)[C@H]2O)cc1Cc1ccc(-c2ccc(F)cc2)s1`: “urinary potassium excretion change” 7.02 mEq (Japanese type 2 diabetes patients; 200 mg, day 1, 24 h urine collection; baseline: baseline).
For `Cl.[2H]C([2H])([2H])CC(=O)c1cnc(NC(=O)C2CC2)cc1Nc1cccc(-c2ncn(C([2H])([2H])[2H])n2)c1OC`, the half-life was 7.48 h (geometric mean; human; oral, 50 mg single dose, fasted, liquid).
With `N#Cc1ccc([C@H]2COC[C@@H](C3CC3)N2)cc1` the solubility was over 750 µM (shake-flask, LC-HRMS; aqueous buffer; 16 h, pH 6.8).
`[H]/N=C(/N)c1ccc(NCc2nc3cc(C(=O)N(CCC(=O)O)c4ccccn4)ccc3n2C)cc1` has an AUC24 ratio of 209% (healthy human, plasma; oral, dose not given, geometric mean, dabigatran etexilate dosed, together with: vepdegestrant 200 mg; baseline: with over without vepdegestrant).
`CNc1cc[n+](CCNC(=O)c2ccn3c(-c4c(C)noc4C)cnc3c2)cc1.[Cl-]`: “total organic impurities” 0 % peak area (0.1 M HCl; initial, pH 1).
For `Cc1nc(C)c(-c2ccnc(Nc3cccc([N+](=O)[O-])c3)n2)s1`, the solubility was under 1.4 µg/mL (aqueous buffer; pH 7.4).
`CCCC1CCC(c2ccc(OCC)c(F)c2F)CC1` (stereo not shown) has a placental accumulation of 17.2 ± 18.2 ng/g (rat, placenta; 1000 ng/mL in perfusate, middle dose, mixture of 21 LCMs).
`CCOC(=O)N1C[C@@H](C(CC)CC)N[C@@H](C2CC2)C1` gave a solubility of over 750 µM (shake-flask, LC-HRMS; aqueous buffer; 16 h, pH 6.8).
With `O=c1[nH]c(=O)n([C@@H]2O[C@H](CO)[C@@H](O)[C@@H]2F)cc1CCCCC[18F]` the biodistribution was 0.12 ± 0.03 %ID/g (nude mice, RG2 tumour, lung; intravenous, dose not given, 2 h).

For quick reference, copied from above:
For `O=c1cc(-c2ccc(OS(=O)(=O)[O-])cc2)oc2cc(OS(=O)(=O)[O-])cc(OCc3cccc(COc4cc(OS(=O)(=O)[O-])cc5oc(-c6ccc(OS(=O)(=O)[O-])cc6)cc(=O)c45)n3)c12.[Na+].[Na+].[Na+].[Na+]`, “concentration doubling PT” read over 855 µM (pooled human plasma).
With `C=CC(=O)Nc1cc(Nc2nccc(-c3cn(C)c4ccccc34)n2)c(OC)cc1N(C)CCN(C)C` the recovery was 98.6% (storage stability; human plasma; 2 h, on ice, HQC level).
`COc1ccc2c(=O)n(C)c(-c3ccccc3)nc2c1` — result for tissue concentration: “not detected” (Sprague-Dawley rat, heart; oral, 30 mg/kg, 0.25 h).
